Assay results collected from several papers.
Protocols differ between the studies behind these lines. Values joined by “and” are separate records of one study, mostly repeats; a detail may differ. ± gives the spread as reported.

SMILES	test	system	conditions	how to read	endpoint	value
CC(c1cc2ccccc2s1)N(O)C(N)=O (stereo not drawn)	refers to: LTB4 isomers	human whole blood	3 µM, with: Escherichia coli		amount	54 ± 10 pg/mL blood
CCO[C@H]1CCN(Cc2c(OC)cc(C)c3[nH]ccc23)[C@H](c2ccc(C(=O)O)cc2)C1	refers to: PNH-type erythrocytes	PNH patients, blood	50 mg/200 mg, week 2, mean		PNH red cell clone size	65.6%
c1ccc(-c2n[nH]cc2-c2ccnc3ccccc23)nc1	kinase binding, competitor, MIB/MS competition, refers to: PKH2	Candida albicans cell lysate	1 µM	relative to: DMSO	log2 fold change	1.18
[Mn+2]	flow cytometry	CD4-low T cells from PBMC, BALB/c mouse	dose not given	relative to: no Mn2+	CD18-high cell fraction	7.66 and 21 and 5.1 and 8.45 and 8.92 and 19.5 and 16 and 4.7
CCN1CCN(Cc2ccc(Nc3ncc(F)c(-c4cc(F)c5nc6n(c5c4)[C@H](C)CCC6)n3)nc2)CC1		human advanced solid tumours	100 mg, phase Ia monotherapy RECIST 1.1		progressive disease	25%
C=CC(=O)N1CCC(c2ccc(C(N)=O)c(-c3ccc(Oc4ccccc4)cc3)n2)CC1	tumour response, Lugano classification	patients with relapsed/refractory MCL	independent review, 10.5 months follow-up		ORR	80.2%
Cc1c(C)n(Cc2cccc(OC(C)(C)C(=O)O)c2)c2ccc(C(=O)N[C@@H](C)c3ccc(C(C)(C)C)cc3)cc12	indirect calorimetry	mice, diet-induced obese	dose not given, average over 72 h, end of treatment		locomotor activity	482 ± 269 counts/20 min
CN(C)C(=O)Oc1cccc([N+](C)(C)C)c1	neuromuscular block reversal	rat	dose not given, 7 (unit not given), with: cisatracurium	relative to: T1 twitch	train-of-four ratio	53.4
C[C@H]1C[C@H]2CSC(N)=N[C@@]2(c2nc(NC(=O)c3ccc(OC(F)F)cn3)cs2)CO1	refers to: Aβx-40	healthy adults, plasma	50 mg once daily, day 2	relative to: placebo	percent change from baseline	-58.5%
O=C(COc1ccc(Cl)cc1)NC12CC(c3nnc([C@H]4C[C@@H](OC(F)(F)F)C4)o3)(C1)C2		healthy human, PBMC	45 mg once daily, day 15, 24 h post-dose, median, with: sodium arsenite ex vivo	relative to: baseline	CHAC1 mRNA change	-70.2%
CC(C)[C@H](C(=O)Nc1ccc(C(=O)NO)cc1)c1ccccc1	MRI volumetry	human, right IAC schwannoma	dose not given, day 1512 post-treatment		tumour volume	0.0302 cm³
N#Cc1ccn2c(-c3ccncc3)c(-c3ccc(F)cc3)nc2c1	kinase binding, competitor, MIB/MS competition, refers to: HRK1	Candida albicans cell lysate	100 nM	relative to: DMSO	log2 fold change	-0.251
Cc1cc(-c2nnc(N)nc2-c2ccc(F)cc2)cc(Cl)n1	NanoString, refers to: M2.core.Becker.IO signature	human mCRPC, peripheral blood	dose not given, 2 or 4 weeks	relative to: baseline, direction not given	GSVA score change	0.173
C[C@H]1O[C@@H](O[C@H]2CC[C@@]3(C)[C@@H](CC[C@]4(C)[C@@H]3C=C[C@]35OC[C@@]6(CCC(C)(C)C[C@H]63)[C@@H](O)C[C@]54C)[C@]2(C)CO)[C@H](O)[C@@H](O[C@@H]2O[C@H](CO)[C@@H](O)[C@H](O)[C@H]2O)[C@H]1O		chronic-plus-binge ethanol-fed mice, liver	dose not given, high dose	relative to: area	Oil Red O area	11% and 8.57% and 4.87% and 3.97%
N#Cc1ccc2c(-c3ccncc3)c(-c3ccc(F)cc3)nn2c1	kinase binding, competitor, MIB/MS competition, refers to: NPR1	Candida albicans cell lysate	10 µM	relative to: DMSO	log2 fold change	0.113
C[C@]12CC[C@@H]3c4ccc(O)cc4C[C@@H](CCCCCCCCC[S+]([O-])CCCC(F)(F)C(F)(F)F)[C@H]3[C@@H]1CC[C@@H]2O (stereo partly drawn)		female nude mouse LCC2 xenograft	2.0 mg/kg, day 1, tamoxifen-resistant		tumour volume	23.7 mm3 and 15.4 mm3 and 17.7 mm3 and 25.3 mm3 and 15.6 mm3 and 38.8 mm3 and 20.9 mm3
CCc1c(C)nc(-c2ccc(Cl)s2)nc1Nc1ccc(CC(=O)O)cc1		C57BL/6J mice, MCD diet	intraperitoneal, 0.3 mg/kg daily, MCD diet 6 weeks, dosed last two	relative to: vehicle	serum TBIL	decreased
COc1ccc2c3c([nH]c2c1)[C@H](CC(C)C)N1C(=O)[C@H](CC(=O)NC(C)C)NC(=O)[C@@H]1C3	refers to: protoporphyrin IX	Fech-mutant mice, serum	oral, 100 mg/kg, 0.5 h		serum concentration	309 ng/mL and 295 ng/mL
O=C(O)/C=C/c1nccc2c3ccccc3n(Cc3ccc(Br)cc3)c12		mouse, acute hyperuricaemia model	oral, 2 mg/kg		decrease in serum uric acid	13.1%
CCOCc1nc(O)c(-c2nnc(Cc3ccc(Cl)cn3)o2)c(O)c1-c1c(OC)cccc1OC		anaesthetised rat	intravenous infusion, 100 µg/kg/min for 15 min	relative to: baseline	heart rate change	3.2 ± 0.9%
C[C@H](NC(=O)c1c(C(F)F)nn(C)c1Oc1cccc(C(F)(F)F)c1)c1ccc(C(=O)O)cc1	irRECIST	human, advanced tumours	500 mg	best overall response	progressive disease	57.1%
C[C@H](Oc1ccc(Br)cc1-c1ccon1)C(=O)O	peak grip force, handgrip dynamometry	healthy human	50 mg, SAD		difference from placebo	-4.19 kg
Cc1noc(C)c1-c1cc(C(O)(c2ccccn2)c2ccccn2)c2nc(C3CC3)[nH]c2c1	refers to: HEXIM1 expression	human, peripheral blood	6 mg, day 8, 1599 study		maximum induction	94%

SMILES	test	system	conditions	how to read	endpoint	value
CC(=O)NCC(=O)NCC(=O)N[C@H](C(=O)N[C@@H](Cc1ccc(O)cc1)C(=O)N[C@@H](CO)C(=O)N[C@H]1CSSC[C@@H](C(=O)N[C@@H](CCCNC(=N)N)C(=O)N2CCC[C@H]2C(=O)N[C@@H](CCC(N)=O)C(=O)N[C@@H](CCCNC(=N)N)C(=O)NCC(=O)NCCC(=O)N[C@@H](CCCCNC(=O)CN(CC(=O)NCCCC[C@H](NC(=O)CCNC(=O)CNC(=O)[C@H](CCCNC(=N)N)NC(=O)[C@H](CCC(N)=O)NC(=O)[C@@H]2CCCN2C(=O)[C@H](CCCNC(=N)N)NC(=O)[C@@H]2CSSC[C@H](NC(=O)[C@H](CO)NC(=O)[C@H](Cc3ccc(O)cc3)NC(=O)[C@@H](NC(=O)CNC(=O)CNC(C)=O)[C@@H](C)O)C(=O)N[C@@H](Cc3c[nH]cn3)C(=O)N[C@@H](Cc3ccccc3)C(=O)NCC(=O)N[C@@H](C)C(=O)N[C@@H](CC(C)C)C(=O)N[C@@H]([C@@H](C)O)C(=O)N[C@@H](Cc3c[nH]c4ccccc34)C(=O)N[C@@H](C(C)C)C(=O)N2)C(N)=O)C(=O)CCN)C(N)=O)NC(=O)[C@H](C(C)C)NC(=O)[C@H](Cc2c[nH]c3ccccc23)NC(=O)[C@H]([C@@H](C)O)NC(=O)[C@H](CC(C)C)NC(=O)[C@H](C)NC(=O)CNC(=O)[C@H](Cc2ccccc2)NC(=O)[C@H](Cc2c[nH]cn2)NC1=O)[C@@H](C)O		healthy BALB/c mice	subcutaneous, 0.16 mg/kg, 14 d, single dose		reticulocytes	4%
Cc1cc(Nc2cc3ncccc3c(N[C@@H]3C[C@H]4CC[C@@H](C3)N4CCC#N)n2)n[nH]1		moderate-severe ulcerative colitis patients	20 mg, day 28, unit not given	relative to: baseline	change in total Mayo	-1.3
Cc1n[nH]c2ccc(-c3cc(OC[C@@H](N)Cc4ccccc4)cnc3-c3ccoc3)cc12	kinase binding, competitor, MIB/MS competition, refers to: SSK2	Candida albicans cell lysate	1 µM	relative to: DMSO	log2 fold change	-0.847
COc1ccc(Oc2cc(N(C)CCOc3ccc(CC4SC(=O)NC4=O)cc3)ncn2)cc1 (stereo not drawn)		type 2 diabetes patients	0.5 mg once daily, 12 weeks		patients achieving HbA1c below 7%	28.8%
NC(=O)c1cnc2[nH]ccc2c1N[C@@H]1[C@@H]2CC3C[C@H]1C[C@@](O)(C3)C2	flow cytometry, refers to: CD4+ effector memory T cells	Japanese healthy subjects, peripheral blood	oral, 10 mg twice daily, day 7		change from baseline	0.35%
C=C1CC[C@H](OCCCNC(=O)CCOCCOCCOCCOCCOCCOCCOCCOCCOCCOCCOCCOCCOCCOCCOCCOCCOCCOCCOCCOCCOCCOCCOCCOCCOCCOCCOCCOCCOCCOCCOCCOCCOCCOCCOCCOCCNC(=O)CCN2C(=O)CC(SC[C@H](NC(=O)[C@H](CCCNC(=N)N)NC(=O)[C@@H]3CCCN3C(=O)[C@H](CCC(N)=O)NC(=O)[C@H](CC(C)C)NC(=O)[C@H](CCCCN)NC(=O)[C@H](C)NC(=O)[C@@H]3CCCN3C(=O)[C@@H]3CCCN3C(=O)[C@H](CCCCN)NC(=O)[C@H](CCCCN)NC(=O)[C@H](CO)NC(=O)[C@H](CCC(=O)O)NC(=O)[C@H](CCCCN)NC(=O)[C@H](CCCNC(=N)N)NC(=O)[C@H](CCC(N)=O)NC(=O)[C@H](CCC(N)=O)NC(=O)[C@@H](NC(=O)[C@H](CCCNC(=N)N)NC(=O)[C@H](CCC(N)=O)NC(=O)[C@H](Cc3c[nH]cn3)NC(=O)[C@H](CCC(=O)O)NC(=O)[C@@H]3CCCN3C(=O)[C@H](CO)NC(=O)[C@H](CC(C)C)NC(=O)[C@H](Cc3ccccc3)NC(=O)[C@H](CNC(=O)CCCCCCC)NC(=O)[C@H](CO)NC(=O)CN)C(C)C)C(=O)O)C2=O)C/C1=C/C=C1\CCC[C@]2(C)[C@@H]([C@H](C)CCCC(C)(C)O)CC[C@@H]12 (stereo partly drawn)	refers to: carcass weight	C57BL/6J mice, LLC tumour-induced cachexia	0.5 mg/kg every other day	relative to: tumour-bearing vehicle	body weight loss	6%
C[C@H](CS)C(=O)N1CCC[C@H]1C(=O)O	inhibitor, LC-MS/MS, refers to: Met- or Leu-enkephalin	mouse striatal brain slices	10 µM, 20 min, with: 50 mM KCl		extracellular enkephalin concentration	846 pM and 1250 pM and 853 pM and 520 pM and 1020 pM and 626 pM
COc1cc(C2C3=C(COC3=O)N(CCO)c3cc4c(cc32)CCC4)cc(OC)c1OC (stereo not drawn)		female NSG mice, EMT6 orthotopic	intraperitoneal, 30 mg/kg, 5 days/week, 21 days	relative to: vehicle	lung metastasis reduction	~66%
O=C(O)CNC(=O)Cc1ccccc1		ventricular cardiomyocytes, C57BL/6 mouse	dose not given, 0.764 s		sarcomere length	1.72 µm
COc1cc(-c2ccccc2)ncc1C(=O)Nc1ccc2c(=O)[nH]c(-c3ccc(C(C)(C)O)cc3)nc2c1	RNA-seq GSEA, refers to: FALLER_ENTEROCYTE_PRO_MOUSE	organoids, small intestinal, Apc Q1405X, mouse	dose not given, wild-type organoids	relative to: DMSO, direction not given	normalized enrichment score	-1
CN[C@@H]1COc2c(S(=O)(=O)NC(=O)Nc3c4c(cc5c3CCC5)CCC4)cnn2C1	refers to: IL-18	human participants, whole blood ex vivo	300 mg twice daily, multiple doses, 144 h, IL-18, circulating, adjusted for, with: LPS/ATP	relative to: baseline	inhibition	93.4%
CN(C(=O)n1cnc(-c2ccc[n+]([O-])c2)c1)C1CCCCC1	refers to: LEA	human, plasma	100 mg single dose		AUC(0-t)	408 ng·h/mL
OC(CCN1CCCCC1)(c1ccccc1)C1CC2C=CC1C2 (stereo not drawn)	resting-state EEG	healthy elderly humans	oral, 4 mg, eyes open, LS mean	relative to: baseline	change in EEG Alpha1-power Pz-O2	-27.9%
CC(C)c1c(C(=O)Nc2ccccc2)c(-c2ccccc2)c(-c2ccc(F)cc2)n1CC[C@@H](O)C[C@@H](O)CC(=O)O		cynomolgus monkey, male, serum	40 mg/kg or 25 mg/kg, day 86, 2064 h		total cholesterol	92.9 mg/dL
O=C(OC(C(F)(F)F)C(F)(F)F)N1CCN(Cc2cccc(Oc3ccccc3)c2)CC1	PET blocking study	rhesus monkey, brain thalamus	intravenous, 0.3 mg/kg, compound pretreatment, with: [18F]T-401 tracer		volume of distribution	1.32 mL/cm3
Cc1cc(C)c(CNC(=O)c2cc(Cl)c3c(c2C)O[C@@](C)([C@H]2CC[C@H](N(C)C)CC2)O3)c(=O)[nH]1		human relapsed/refractory NHL	dose not given, measurable baseline disease		partial response rate	20%
COc1ccc(F)cc1C(=O)NCc1ccc(-c2nn([C@@H](C)C(F)(F)F)c(N)c2C(N)=O)cc1		B-cell malignancy patients	dose not given, at data cutoff		patients remaining on treatment	73%
O=S(=O)(NCCNC/C=C/c1ccc(Br)cc1)c1cccc2cnccc12		mouse zygotes	20 µM, 120 h post-hCG		embryos reaching blastocyst	21.1% and 35.3% and 35%
COc1ccccc1[C@H](Cn1c(=O)n(C(C)(C)C(=O)O)c(=O)c2c(C)c(-c3ncco3)sc21)OC1CCOCC1		human	20 mg, post-treatment		blood ketones	0.13 ± 0.05 mmol/L
Cc1oncc1C(=O)Nc1ccc(C(F)(F)F)cc1	refers to: dihydroorotate	female CD-1 mice, pooled urine	oral, 30 mg/kg daily, 8-24 h after dose 1		DHO concentration	5070 ± 255 µM
CC(C)NCC(O)c1ccc(O)c(O)c1 (stereo not drawn)		ventricular cardiomyocytes, C57BL/6 mouse	dose not given, 0.628 s		sarcomere length	1.72 µm
C[C@@H](O)CCOC(=O)C[C@@H](C)O	refers to: Phe	human, plasma	60 min, log2-transformed values		metabolite level	5.88 ± 0.22 µmol/L
